{"data": "Experimental data collected from several papers", "T1": "itself; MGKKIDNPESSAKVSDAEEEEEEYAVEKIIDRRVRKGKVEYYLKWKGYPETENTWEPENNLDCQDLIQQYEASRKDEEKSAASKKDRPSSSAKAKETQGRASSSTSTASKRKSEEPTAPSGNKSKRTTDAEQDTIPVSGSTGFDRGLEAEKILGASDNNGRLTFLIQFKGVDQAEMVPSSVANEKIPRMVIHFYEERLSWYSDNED", "T2": "itself; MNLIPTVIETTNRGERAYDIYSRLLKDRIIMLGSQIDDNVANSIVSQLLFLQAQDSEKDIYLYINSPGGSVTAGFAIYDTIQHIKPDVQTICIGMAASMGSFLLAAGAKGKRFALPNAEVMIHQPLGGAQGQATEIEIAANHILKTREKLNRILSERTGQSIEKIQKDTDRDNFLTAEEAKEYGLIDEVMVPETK", "T3": "itself; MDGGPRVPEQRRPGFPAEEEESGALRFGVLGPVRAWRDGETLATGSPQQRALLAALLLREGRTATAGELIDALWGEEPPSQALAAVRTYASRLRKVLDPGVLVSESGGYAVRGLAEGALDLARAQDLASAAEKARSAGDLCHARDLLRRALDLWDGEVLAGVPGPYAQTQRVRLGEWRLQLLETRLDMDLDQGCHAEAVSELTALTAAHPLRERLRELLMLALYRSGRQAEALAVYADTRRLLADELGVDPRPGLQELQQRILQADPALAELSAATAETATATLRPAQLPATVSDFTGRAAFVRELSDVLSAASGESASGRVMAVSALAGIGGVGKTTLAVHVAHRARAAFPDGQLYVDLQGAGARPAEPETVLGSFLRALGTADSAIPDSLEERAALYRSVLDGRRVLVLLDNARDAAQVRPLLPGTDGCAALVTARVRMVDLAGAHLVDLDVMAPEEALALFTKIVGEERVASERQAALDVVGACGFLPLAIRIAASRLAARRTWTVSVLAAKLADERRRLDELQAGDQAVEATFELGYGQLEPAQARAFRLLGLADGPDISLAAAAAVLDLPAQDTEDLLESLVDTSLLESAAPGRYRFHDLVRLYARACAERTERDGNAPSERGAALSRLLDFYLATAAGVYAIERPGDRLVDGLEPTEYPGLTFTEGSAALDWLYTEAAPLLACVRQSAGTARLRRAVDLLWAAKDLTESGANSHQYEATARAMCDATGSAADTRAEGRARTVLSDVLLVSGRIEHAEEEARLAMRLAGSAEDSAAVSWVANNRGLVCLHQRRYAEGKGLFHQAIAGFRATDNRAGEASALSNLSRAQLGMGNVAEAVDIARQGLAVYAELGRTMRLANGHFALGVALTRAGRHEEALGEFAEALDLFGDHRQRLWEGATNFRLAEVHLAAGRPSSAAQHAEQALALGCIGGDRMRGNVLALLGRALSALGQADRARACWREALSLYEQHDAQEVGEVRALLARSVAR", "B1": "DPP4 39-766 (Homo sapiens, UniProt P27487); chain SRKTYTLTDYLKNTYRLKLYSLRWISDHEYLYKQENNILVFNAEYGNSSVFLENSTFDEFGHSINDYSISPDGQFILLEYNYVKQWRHSYTASYDIYDLNKRQLITEERIPNNTQWVTWSPVGHKLAYVWNNDIYVKIEPNLPSYRITWTGKEDIIYNGITDWVYEEEVFSAYSALWWSPNGTFLAYAQFNDTEVPLIEYSFYSDESLQYPKTVRVPYPKAGAVNPTVKFFVVNTDSLSSVTNATSIQITAPASMLIGDHYLCDVTWATQERISLQWLRRIQNYSVMDICDYDESSGRWNCLVARQHIEMSTTGWVGRFRPSEPHFTLDGNSFYKIISNEEGYRHICYFQIDKKDCTFITKGTWEVIGIEALTSDYLYYISNEYKGMPGGRNLYKIQLSDYTKVTCLSCELNPERCQYYSVSFSKEAKYYQLRCSGPGLPLYTLHSSVNDKGLRVLEDNSALDKMLQNVQMPSKKLDFIILNETKFWYQMILPPHFDKSKKYPLLLDVYAGPCSQKADTVFRLNWATYLASTENIIVASFDGRGSGYQGDKIMHAINRRLGTFEVEDQIEAARQFSKMGFVDNKRIAIWGWSYGGYVTSMVLGSGSGVFKCGIAVAPVSRWEYYDSVYTERYMGLPTPEDNLDHYRNSTVMSRAENFKQVEYLLIHGTADDNVHFQQSAQISKALVDVGVDFQAMWYTDEDHGIASSTAHQHIYTHMSHFIKQCFSLP", "B2": "Su(var)205 (Drosophila melanogaster, UniProt P05205); chain MGKKIDNPESSAKVSDAEEEEEEYAVEKIIDRRVRKGKVEYYLKWKGYPETENTWEPENNLDCQDLIQQYEASRKDEEKSAASKKDRPSSSAKAKETQGRASSSTSTASKRKSEEPTAPSGNKSKRTTDAEQDTIPVSGSTGFDRGLEAEKILGASDNNGRLTFLIQFKGVDQAEMVPSSVANEKIPRMVIHFYEERLSWYSDNED", "B3": "clpP 1-195 (Staphylococcus aureus, UniProt Q2G036); chain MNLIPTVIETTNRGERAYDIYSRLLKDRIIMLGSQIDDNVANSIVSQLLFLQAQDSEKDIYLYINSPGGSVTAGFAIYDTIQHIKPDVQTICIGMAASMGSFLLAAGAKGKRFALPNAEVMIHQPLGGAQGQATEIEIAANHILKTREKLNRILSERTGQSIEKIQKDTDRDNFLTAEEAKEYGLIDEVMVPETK", "note": "Protocols differ between the studies behind these lines. “And” joins repeats or separate records; there may be more than shown."}
{"Substance": "Ec78 retron ABC ATPase Q361L (Escherichia coli)", "tested on": "itself", "assay": "cryo-EM", "quantity": "subunits per oligomer", "value": 4}
{"Substance": "gor L416E (Pseudomonas sp. JR-1)", "tested on": "itself", "assay": "SEC", "conditions": "pH 7.5, 4 °C", "quantity": "subunits per oligomer", "value": 2}
{"Substance": "porB (Neisseria gonorrhoeae)", "tested on": "itself", "assay": "cross-linking", "quantity": "subunits per oligomer", "value": 3}
{"Substance": "FraB full length, His6-SUMO fusion (Salmonella)", "tested on": "itself", "assay": "native MS", "quantity": "subunits per oligomer", "value": 2}
{"Substance": "UreE-F E215A (Klebsiella aerogenes)", "tested on": "itself", "assay": "SEC", "quantity": "subunits per oligomer", "value": 2}
{"Substance": "cmeC (Campylobacter jejuni)", "tested on": "itself", "assay": "SEC", "quantity": "subunits per oligomer", "value": 3}
{"Substance": "UreE-F L221A (Klebsiella aerogenes)", "tested on": "itself", "assay": "SEC", "quantity": "subunits per oligomer", "value": 2}
{"Substance": "RL2 fragment (HSV-1)", "tested on": "itself", "assay": "crystal structure", "quantity": "subunits per oligomer", "value": 2}
{"Substance": "UreE-F R220A (Klebsiella aerogenes)", "tested on": "itself", "assay": "SEC", "quantity": "subunits per oligomer", "value": 2}
{"Substance": "gor F443A (Pseudomonas sp. JR-1)", "tested on": "itself", "assay": "SEC", "conditions": "pH 7.5, 4 °C", "quantity": "subunits per oligomer", "value": 2}
{"Substance": "EspD fragment (Escherichia coli)", "tested on": "itself", "assay": "SEC", "quantity": "subunits per oligomer", "value": 2}
{"Substance": "UreE-F E30A (Klebsiella aerogenes)", "tested on": "itself", "assay": "SEC", "quantity": "subunits per oligomer", "value": 2}
{"Substance": "MAM fragment (Mycoplasma arthritidis)", "tested on": "itself", "assay": "crystal structure", "quantity": "subunits per oligomer", "value": 2}
{"Substance": "B1 (DPP4 39-766)", "tested on": "itself", "assay": "SEC-MALS", "quantity": "subunits per oligomer", "value": 2}
{"Substance": "HMWP (Physarum polycephalum)", "tested on": "itself", "assay": "AUC, SEC", "quantity": "subunits per oligomer", "value": 2}
{"Substance": "HBV core protein -10 to 154 C48A/C107A, intramolecular disulfide (hepatitis B virus)", "tested on": "itself", "assay": "AUC", "conditions": "oxidized, no DTT", "quantity": "subunits per oligomer", "value": 2}
{"Substance": "uvrA (Clostridium thermocellum)", "tested on": "itself", "assay": "cryo-EM", "quantity": "subunits per oligomer", "value": 2}
{"Substance": "gor L416A (Pseudomonas sp. JR-1)", "tested on": "itself", "assay": "SEC", "conditions": "pH 7.5, 4 °C", "quantity": "subunits per oligomer", "value": 2}
{"Substance": "yjgK fragment (Salmonella enterica serovar Typhimurium)", "tested on": "itself", "assay": "SEC", "quantity": "subunits per oligomer", "value": 2}
{"Substance": "dye-decolorizing peroxidase (Klebsiella pneumoniae)", "tested on": "itself", "assay": "native gel, EMSA, SEC", "quantity": "subunits per oligomer", "value": "6 and 2"}
{"Substance": "insulin human", "assay": "item: EPHA5 mRNA", "test system": "EcoHIV-infected mouse, brain", "conditions": "i.p., dose not given", "how to read": "relative to: PBS", "quantity": "fold change", "value": 0.97}
{"Substance": "Aca11 fragment (Streptococcus sp)", "tested on": "itself", "assay": "SEC-MALS", "quantity": "subunits per oligomer", "value": 2}
{"Substance": "UreE-F H214A (Klebsiella aerogenes)", "tested on": "itself", "assay": "SEC", "quantity": "subunits per oligomer", "value": 2}
{"Substance": "bltD (Enterococcus faecalis)", "tested on": "itself", "assay": "crystal structure", "conditions": "asymmetric unit dimer", "quantity": "subunits per oligomer", "value": 2}
{"Substance": "UreE-F K165A (Klebsiella aerogenes)", "tested on": "itself", "assay": "SEC", "quantity": "subunits per oligomer", "value": 2}
{"Substance": "S HBsAg C107R (hepatitis B virus)", "tested on": "itself", "assay": "non-reducing SDS-PAGE Western blot", "test system": "Huh7, lysate", "quantity": "subunits per oligomer", "value": 2}
{"Substance": "GluA4/TARPγ2 (Rattus norvegicus/Homo sapiens)", "tested on": "itself", "assay": "SEC", "quantity": "subunits per oligomer", "value": 4}
{"Substance": "CapV apo, wild type (Acinetobacter baumannii)", "tested on": "itself", "assay": "cryo-EM", "quantity": "subunits per oligomer", "value": 2}
{"Substance": "AimR (Bacillus amyloliquefaciens prophage)", "tested on": "itself", "assay": "SEC-MALS", "conditions": "without peptide", "quantity": "subunits per oligomer", "value": 2}
{"Substance": "B2 (Su(var)205)", "tested on": "T1, itself", "assay": "SEC-SAXS", "quantity": "subunits per oligomer", "value": 2}
{"Substance": "gor L416A/F443A (Pseudomonas sp. JR-1)", "tested on": "itself", "assay": "SEC", "conditions": "pH 7.5, 4 °C", "quantity": "subunits per oligomer", "value": 2}
{"Substance": "GP2 soluble ectodomain (lymphocytic choriomeningitis virus)", "tested on": "itself", "assay": "cross-linking", "quantity": "subunits per oligomer", "value": 3}
{"Substance": "HBV core protein -10 to 149 C48A/C107A/G123A, intramolecular disulfide (hepatitis B virus)", "tested on": "itself", "assay": "AUC", "conditions": "reduced", "quantity": "subunits per oligomer", "value": 2}
{"Substance": "S HBsAg C138R (hepatitis B virus)", "tested on": "itself", "assay": "Western blot, non-reducing SDS-PAGE", "test system": "Huh7, lysate, supernatant", "conditions": "disulfide bonds kept, not purified", "quantity": "subunits per oligomer", "value": 2}
{"Substance": "B3 (clpP 1-195)", "tested on": "T2, itself", "assay": "crystal structure", "quantity": "subunits per oligomer", "value": 14}
{"Substance": "MIF (Neospora caninum)", "tested on": "itself", "assay": "cross-linking", "quantity": "subunits per oligomer", "value": 3}
{"Substance": "afsR (Streptomyces coelicolor, UniProt P25941)", "tested on": "T3, itself", "assay": "cryo-EM", "quantity": "subunits per oligomer", "value": 2}
{"Substance": "S HBsAg C147R (hepatitis B virus)", "tested on": "itself", "assay": "non-reducing SDS-PAGE Western blot", "test system": "Huh7, lysate", "quantity": "subunits per oligomer", "value": 2}
{"Substance": "UreE-F F222A (Klebsiella aerogenes)", "tested on": "itself", "assay": "SEC", "quantity": "subunits per oligomer", "value": 2}
{"Substance": "Dengue envelope protein soluble ectodomain, no stem/transmembrane (Dengue virus serotype 2)", "tested on": "itself", "assay": "sucrose gradient sedimentation", "quantity": "subunits per oligomer", "value": 2}
{"note": "Repeated from above:"}
{"Substance": "gor L416A/F443A (Pseudomonas sp. JR-1)", "tested on": "itself", "assay": "SEC", "conditions": "pH 7.5, 4 °C", "quantity": "subunits per oligomer", "value": 2}
{"Substance": "GP2 soluble ectodomain (lymphocytic choriomeningitis virus)", "tested on": "itself", "assay": "cross-linking", "quantity": "subunits per oligomer", "value": 3}
{"Substance": "HBV core protein -10 to 149 C48A/C107A/G123A, intramolecular disulfide (hepatitis B virus)", "tested on": "itself", "assay": "AUC", "conditions": "reduced", "quantity": "subunits per oligomer", "value": 2}
{"Substance": "S HBsAg C138R (hepatitis B virus)", "tested on": "itself", "assay": "Western blot, non-reducing SDS-PAGE", "test system": "Huh7, lysate, supernatant", "conditions": "disulfide bonds kept, not purified", "quantity": "subunits per oligomer", "value": 2}
{"Substance": "B3 (clpP 1-195)", "tested on": "T2, itself", "assay": "crystal structure", "quantity": "subunits per oligomer", "value": 14}
{"Substance": "MIF (Neospora caninum)", "tested on": "itself", "assay": "cross-linking", "quantity": "subunits per oligomer", "value": 3}
{"Substance": "afsR (Streptomyces coelicolor, UniProt P25941)", "tested on": "T3, itself", "assay": "cryo-EM", "quantity": "subunits per oligomer", "value": 2}
